Assay results from different studies.
“And” joins repeats or separate records; there may be more than shown. Numbers after ± are the reported error.
Sequence of UniProt O96017 (whole entry, looked up): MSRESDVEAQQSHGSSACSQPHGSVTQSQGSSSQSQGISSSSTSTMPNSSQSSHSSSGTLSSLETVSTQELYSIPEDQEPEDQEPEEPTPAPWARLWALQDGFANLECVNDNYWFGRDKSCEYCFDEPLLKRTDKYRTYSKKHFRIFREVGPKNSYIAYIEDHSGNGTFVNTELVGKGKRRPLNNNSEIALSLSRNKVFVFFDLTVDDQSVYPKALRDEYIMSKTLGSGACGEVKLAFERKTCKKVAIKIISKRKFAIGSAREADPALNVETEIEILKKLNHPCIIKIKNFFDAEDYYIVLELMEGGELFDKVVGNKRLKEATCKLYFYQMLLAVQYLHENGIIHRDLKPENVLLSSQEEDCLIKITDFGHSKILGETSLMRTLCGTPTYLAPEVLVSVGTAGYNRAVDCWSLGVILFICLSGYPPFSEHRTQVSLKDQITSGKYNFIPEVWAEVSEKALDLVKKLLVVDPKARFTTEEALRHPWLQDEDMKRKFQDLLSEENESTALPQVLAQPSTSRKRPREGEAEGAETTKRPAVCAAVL

Structure (SMILES)	tested on	assay	test system	conditions	how to read	measurement	value
COc1cc(N2CCN(C(=O)C3CCCN3)CC2)ccc1Nc1ncc(Cl)c(Nc2ccccc2P(C)(C)=O)n1 (stereo not shown)	Ba/F3 EML4-ALK	flow cytometry		concentration not given, 3 h		early apoptotic cells	4.14% and 4.04% and 4.28%
COC1=C2CC(C)CC(OC)C(O)C(C)C=C(C)C(OC(N)=O)C(OC)C=CC=C(C)C(=O)NC(=CC1=O)C2=O (stereo not shown)	Rh30	ChIP-seq, item: H3K36me3 peak		concentration not given, PRPS2 intron chrX:12808600-12844199	relative to: untreated control	log fold change	-0.5
COc1ccc2c(c1)OC1=C(C(=O)CCC1)C2c1c[nH]c2ccccc12 (stereo not shown)	3T3-L1 mature adipocytes	lipolysis, Oil Red O staining		IC20		mean lipid content	0.725 OD492
CC(C)(C)c1cc(-c2ccc3cccnc3n2)nc(-c2ccc3cccnc3n2)c1.COc1ccncc1.[Cl-].[Cl-].[Ru+2].c1ccc2cc3nc4c5cccnc5c5ncccc5c4nc3cc2c1	SK-MEL-28	cell viability		visible light 400-700 nm, 100 J/cm2		EC50	286 ± 17 nM
CC1CN(C(=O)c2cn(C34CCCC(C)(CCC5C3CC5(C)C)C4)nn2)CCN1 (stereo not shown)	HT-29	cell growth or viability, CCK-8		50 µM		inhibition	78.3%
COc1ccc(CNC[C@@](O)(COCc2ccccc2)[C@@H]2CC[C@@H](C)C[C@H]2OCc2ccccc2)cc1	A2780	cell growth or viability, MTT		30 µM, 72 h		inhibition	99.2%
Cn1ncc2cc(-c3cncc(Cl)c3N3CCC4(CCNC4=O)CC3)ccc21	LS174T	gene expression, microarray, item: TIPARP mRNA		concentration not given, 4 h	relative to: untreated cells	log2 fold change	-1.4
Cc1ccc2c(Cn3ccnc3)cc(=O)oc2c1C	COS-7 (untransfected)			500 µM, unit not given	relative to: 3 µM ionomycin	calcium mobilisation signal	0.91 ± 1.89
N#C[C@@H]1CCCN1C(=O)CNC(=O)c1ccnc2ccc(OCCCN3CCN(C(=O)CCc4ccc(O)c(CN5CCN6CC(=O)[O][Al-]([18F])([O]C(=O)C5)[O]c5ccc(CCC(=O)N7CCN(CCCOc8ccc9nccc(C(=O)NCC(=O)N%10CCC[C@H]%10C#N)c9c8)CC7)cc5C6)c4)CC3)cc12 (stereo partly shown)	HT1080 cells expressing human FAP			90 min, 37 °C		internalized fraction	72.8 ± 3.2%
CN1CCCNC(=O)c2cccc(c2)C(=O)NCCCN(C)CCCNc2cccc3c2C(=O)c2cccc(c2C3=O)NCCC1	SAS	RNA-Seq, item: LTN1 mRNA		1 µM, 6 h	relative to: untreated cells	log2 fold change	1.06
CCC(=CCc1c(O)cc2c(c1O)C(=O)CC(c1ccc(OC)c(O)c1)O2)CC (stereo not shown)	HeLa	cell growth or viability, MTT		25 µM, 48 h		inhibition	82.2%
CSC(=NN=C(C)c1ccc(S(=O)(=O)N2CCC(C)CC2)cc1)N(C)C	MCF7	annexin V/PI		concentration not given, 72 h, at IC50		early apoptotic cells	6.32%
O=C(Nc1ccc([C@H]2[C@@H](F)[C@@H](F)C[C@@H](F)[C@H]2F)cc1)C1CC1		hepatocyte stability	cryopreserved rat hepatocytes	1 µM		hepatic clearance	32 mL/min/kg
Cc1ncsc1-c1ccc(C(C)NC(=O)C2CC(O)CN2C(=O)C(NC(=O)CCCCCCCCCCN2CCCC(Nc3ncc(Cl)c(Nc4ccccc4S(=O)(=O)C(C)C)n3)C2)C(C)(C)C)cc1 (stereo not shown)	22Rv1	RNA-seq, item: ZNF70 mRNA		concentration not given	relative to: DMSO	log2 fold change	-1.68
Cc1nn(-c2cccc(N)c2)c(=O)c2cnc(Nc3ccc(N4CCNCC4)cc3)nc12	Serine/threonine-protein kinase Chk2 (CHEK2, Homo sapiens, UniProt O96017)	enzyme activity, inhibitor				IC50	> 10000 nM
CC(C)(C)c1ccc([C@H](O)C[C@H](CO)NC(=O)CCCCCOc2ccc3ccccc3c2)cc1	HeLa	CERT activity, HPLC-MS/MS lipidomics, item: ceramide 20		1 µM, 24 h, not cell-number normalised		ceramide level	100 pmol/sample and 159 pmol/sample and 128 pmol/sample
CC(=O)N[C@@H](Cc1ccc(I)cc1)C(=O)N[C@@H](CCC(=O)O)C(=O)N[C@H](C(=O)N[C@@H](CC(=O)O)C(=O)COC(=O)c1c(C)cccc1C)[C@@H](C)O	THP-1 cells expressing FKBP-caspase-4	pyroptosis, inhibitor		concentration not given, together with: B/B dimerizer		LDH release	35.5% and 30.3% and 32.7%
CNS(=O)(=O)Nc1nccc(Cc2c(C)c3ccc(Oc4ncccc4F)cc3oc2=O)c1F	SK-MEL-2	cell viability		7 days		IC50	3.66 nM
CCC(=CCc1c(O)cc2c(c1O)C(=O)CC(c1ccc(O)cc1OC)O2)CC (stereo not shown)	HeLa	cell growth or viability, MTT		25 µM, 48 h		inhibition	71.4%
O=S(=O)(Nc1ccc(OC(F)(F)F)cc1)N1CCCC(C2c3ccc(F)cc3CCc3cc(F)ccc32)C1 (stereo not shown)	D425	Transwell		1.5 µM, 24 h		cell migration	decreased
O=C(CCC(F)(F)F)Nc1ccc([C@H]2[C@@H](F)[C@@H](F)C[C@@H](F)[C@H]2F)cc1		hepatocyte stability	cryopreserved rat hepatocytes	1 µM		hepatic clearance	25 mL/min/kg
CCN(CC)CC(=O)Nc1cccc(-n2cc(-c3ccc4ccc(-c5cn(-c6cccc(NC(=O)CN(CC)CC)c6)nn5)cc4c3)nn2)c1	RCC4	PCR angiogenesis array, item: ERBB2		5 x IC50, 4 h, normoxia	relative to: untreated	fold regulation	-1.26

Excerpt of the above:
Structure (SMILES)	tested on	assay	test system	conditions	how to read	measurement	value
CSC(=NN=C(C)c1ccc(S(=O)(=O)N2CCC(C)CC2)cc1)N(C)C	MCF7	annexin V/PI		concentration not given, 72 h, at IC50		early apoptotic cells	6.32%
O=C(Nc1ccc([C@H]2[C@@H](F)[C@@H](F)C[C@@H](F)[C@H]2F)cc1)C1CC1		hepatocyte stability	cryopreserved rat hepatocytes	1 µM		hepatic clearance	32 mL/min/kg
